Experimental data gathered from unrelated publications.
Parts stem from different laboratories: compare values within a part only. Changes are numbered by the printed parent chain.

Sample 1
Target: Histone acetyltransferase KAT6A, both winged helices, GST fusion (KAT6A, Homo sapiens, UniProt Q92794, residues 1-181)
Technique: protein binding microarray
Form: double-stranded DNA, one strand shown
Sample: in vitro
Concentration: not given
Notes: 8-mer, flanks averaged, mean of 2 arrays, mostly near background
Reference: not given
Reading: higher = stronger binding
Residues (chain): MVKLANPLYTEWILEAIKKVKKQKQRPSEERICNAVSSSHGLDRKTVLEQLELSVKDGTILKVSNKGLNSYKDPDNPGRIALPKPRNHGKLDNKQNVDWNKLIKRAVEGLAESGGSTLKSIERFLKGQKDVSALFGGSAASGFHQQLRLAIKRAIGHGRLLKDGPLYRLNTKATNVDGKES
For `TATGTTGA`, the E-score was 0.0521.
The E-score of `GCGTAAGC` is reported as 0.204.
The E-score of `GGTTGGAA` is reported as -0.0318.
The E-score of `AACCTTGG` is reported as -0.102.
`ACCAGCTA` gave an E-score of -0.278.
For `AATATTGA`, the E-score was -0.0442.
With `AGGTAGCA` the E-score was -0.216.
For `CCCCGTCA`, the E-score was 0.126.

Sample 2
Target: Phosphate system positive regulatory protein PHO4, full length, GST-tagged (PHO4, Saccharomyces cerevisiae, UniProt P07270, residues 1-312)
Technique: competition protein-binding microarray
Form: double-stranded DNA, one strand shown
Sample: in vitro
Concentration: 2 µM
Notes: whole 60-bp probe, lowest competitor level
With: Cbf1 competitor, 0.05 µM
Reading: higher = stronger binding
Construct (chain): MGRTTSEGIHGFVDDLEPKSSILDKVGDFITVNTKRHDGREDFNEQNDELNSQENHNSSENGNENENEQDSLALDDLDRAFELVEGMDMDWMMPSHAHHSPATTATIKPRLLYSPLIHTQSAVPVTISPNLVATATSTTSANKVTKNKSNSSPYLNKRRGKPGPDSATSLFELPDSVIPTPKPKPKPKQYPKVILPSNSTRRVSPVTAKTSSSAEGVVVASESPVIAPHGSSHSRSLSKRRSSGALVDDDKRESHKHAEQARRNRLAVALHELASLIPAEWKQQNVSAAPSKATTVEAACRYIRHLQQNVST
For `CTTCTGTAAATTTGTGATGTGGGTGGACGCGCCCCGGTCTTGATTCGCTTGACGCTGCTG`, the fluorescence intensity was 4890 a.u.
`CTAACGAAGGTTTTTCACGTGCGCTACAAGCCAAGTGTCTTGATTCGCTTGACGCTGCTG` gave a fluorescence intensity of 13100 a.u.
`TGCGCAACAACTTGTAACGTGGGTGTATGTCTAGAAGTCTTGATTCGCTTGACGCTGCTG` has a fluorescence intensity of 10100 a.u.
`CTTTCCCGATCTTGGCGCGTGGGTGTAGCACATTTGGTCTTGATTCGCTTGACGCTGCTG` has a fluorescence intensity of 11700 a.u.
`GTCTTGTCTCATTGTCACTCAACTTTCCCCACTTCAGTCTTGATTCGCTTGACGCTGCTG` has a fluorescence intensity of 3950 a.u.
`AAAGCGGTAATTTGCCAAGTGGGTGCAGATATCTATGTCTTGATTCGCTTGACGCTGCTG` gave a fluorescence intensity of 3720 a.u.
`CGGGGTTAAGTTTGAAACGTGGGTGGCTTGCAGCAGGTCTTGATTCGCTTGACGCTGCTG` has a fluorescence intensity of 15000 a.u.
`CAGATTAAGCCCCGCCACGTGGTGGCCAAGCCAGCTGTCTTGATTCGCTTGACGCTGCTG` has a fluorescence intensity of 15600 a.u.

Further values, each from its own experiment
P1: viral docking peptide; KKAKRRLFTISDS
Under “normalised enrichment score”, `P1 R5K` is recorded as 0.154 (CCNB1, cyclin fold, Cln2 fusion (human); yeast growth competition, sequencing; yeast; weak parent motif; reference: not given, higher = stronger binding).
`KRT19 (Homo sapiens, UniProt P08727)`: interaction screen “cross-linked” (KRT7 (Homo sapiens, UniProt P08729); cross-linking MS; hits only).

Some of these lines once more (sample 2):
`AAAGCGGTAATTTGCCAAGTGGGTGCAGATATCTATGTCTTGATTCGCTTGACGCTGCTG` gave a fluorescence intensity of 3720 a.u.
